{"data": "Measured values from different studies", "note": "Numbered parts are unrelated; each lists some results of a single study. Values joined by “and” are separate records of one study, mostly repeats; a detail may differ.", "chain of UniProt P46734 (whole entry, looked up)": "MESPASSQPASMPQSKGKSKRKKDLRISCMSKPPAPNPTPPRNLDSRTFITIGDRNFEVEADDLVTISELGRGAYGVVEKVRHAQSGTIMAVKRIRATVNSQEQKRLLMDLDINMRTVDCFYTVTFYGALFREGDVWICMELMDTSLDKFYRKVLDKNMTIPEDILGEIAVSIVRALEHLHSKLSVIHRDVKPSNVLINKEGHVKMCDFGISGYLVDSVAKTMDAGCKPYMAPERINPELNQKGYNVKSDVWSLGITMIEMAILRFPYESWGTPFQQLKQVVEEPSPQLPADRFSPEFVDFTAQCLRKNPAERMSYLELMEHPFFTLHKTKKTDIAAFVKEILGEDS", "chain of UniProt P10721 (whole entry, unmodified, looked up)": "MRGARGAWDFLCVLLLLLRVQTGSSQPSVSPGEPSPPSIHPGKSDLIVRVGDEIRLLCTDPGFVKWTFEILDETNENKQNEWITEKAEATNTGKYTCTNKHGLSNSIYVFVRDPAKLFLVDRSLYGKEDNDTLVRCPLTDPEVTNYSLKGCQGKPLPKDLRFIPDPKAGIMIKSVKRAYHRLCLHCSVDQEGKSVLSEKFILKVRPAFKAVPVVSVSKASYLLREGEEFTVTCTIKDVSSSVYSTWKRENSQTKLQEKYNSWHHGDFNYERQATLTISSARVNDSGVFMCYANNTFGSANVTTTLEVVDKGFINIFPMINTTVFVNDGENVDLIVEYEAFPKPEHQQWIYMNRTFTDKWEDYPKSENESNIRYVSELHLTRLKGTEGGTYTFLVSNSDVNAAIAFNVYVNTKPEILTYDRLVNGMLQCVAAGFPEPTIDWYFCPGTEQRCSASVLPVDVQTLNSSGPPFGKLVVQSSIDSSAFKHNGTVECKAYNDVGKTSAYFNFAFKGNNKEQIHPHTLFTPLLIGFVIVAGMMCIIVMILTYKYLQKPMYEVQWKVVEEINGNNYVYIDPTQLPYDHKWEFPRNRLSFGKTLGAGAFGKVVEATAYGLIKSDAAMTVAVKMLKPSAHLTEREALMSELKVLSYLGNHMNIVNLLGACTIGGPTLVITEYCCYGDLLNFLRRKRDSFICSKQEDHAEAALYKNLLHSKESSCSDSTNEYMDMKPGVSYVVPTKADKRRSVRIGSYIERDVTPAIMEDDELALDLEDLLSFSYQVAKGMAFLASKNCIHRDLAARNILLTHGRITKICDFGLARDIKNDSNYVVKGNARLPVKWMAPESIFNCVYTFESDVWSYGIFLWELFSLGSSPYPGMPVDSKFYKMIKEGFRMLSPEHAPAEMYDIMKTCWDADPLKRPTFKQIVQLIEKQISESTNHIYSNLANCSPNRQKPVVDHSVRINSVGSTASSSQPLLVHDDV", "chain of UniProt O75582 (whole entry, looked up)": "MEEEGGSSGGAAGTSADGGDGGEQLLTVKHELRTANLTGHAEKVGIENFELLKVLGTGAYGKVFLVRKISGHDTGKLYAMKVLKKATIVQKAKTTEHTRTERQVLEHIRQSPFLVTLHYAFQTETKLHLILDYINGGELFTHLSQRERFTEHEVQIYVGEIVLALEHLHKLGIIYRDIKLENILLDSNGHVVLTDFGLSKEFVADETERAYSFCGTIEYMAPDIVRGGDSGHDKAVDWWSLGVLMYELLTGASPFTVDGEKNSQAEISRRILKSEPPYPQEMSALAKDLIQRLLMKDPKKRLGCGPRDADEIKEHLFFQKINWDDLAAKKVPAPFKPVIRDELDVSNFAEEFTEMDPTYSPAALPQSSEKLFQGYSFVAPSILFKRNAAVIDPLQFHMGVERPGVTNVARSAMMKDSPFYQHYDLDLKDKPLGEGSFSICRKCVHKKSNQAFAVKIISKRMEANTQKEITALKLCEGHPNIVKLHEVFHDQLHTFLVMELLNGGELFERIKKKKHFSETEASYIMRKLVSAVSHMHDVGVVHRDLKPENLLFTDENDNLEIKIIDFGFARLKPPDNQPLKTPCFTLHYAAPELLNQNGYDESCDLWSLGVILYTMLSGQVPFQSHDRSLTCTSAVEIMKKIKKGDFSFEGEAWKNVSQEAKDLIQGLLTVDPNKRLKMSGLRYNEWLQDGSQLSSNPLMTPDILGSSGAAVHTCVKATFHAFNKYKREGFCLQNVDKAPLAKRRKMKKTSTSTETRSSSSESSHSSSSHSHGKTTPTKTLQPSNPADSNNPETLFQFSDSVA", "chain of UniProt O00238 (whole entry, looked up)": "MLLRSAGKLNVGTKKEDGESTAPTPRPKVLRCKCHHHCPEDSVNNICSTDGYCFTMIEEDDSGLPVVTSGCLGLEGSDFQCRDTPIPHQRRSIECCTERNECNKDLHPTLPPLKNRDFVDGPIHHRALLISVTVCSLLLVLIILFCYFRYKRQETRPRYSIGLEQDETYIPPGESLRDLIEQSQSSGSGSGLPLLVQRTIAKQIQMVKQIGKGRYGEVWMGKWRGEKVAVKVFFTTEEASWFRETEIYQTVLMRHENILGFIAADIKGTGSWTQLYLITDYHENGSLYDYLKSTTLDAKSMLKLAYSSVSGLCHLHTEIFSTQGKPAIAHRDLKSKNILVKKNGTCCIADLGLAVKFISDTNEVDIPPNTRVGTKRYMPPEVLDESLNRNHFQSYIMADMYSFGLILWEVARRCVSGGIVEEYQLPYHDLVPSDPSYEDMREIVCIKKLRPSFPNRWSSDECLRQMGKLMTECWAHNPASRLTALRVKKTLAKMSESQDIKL", "chain of UniProt O94768 (whole entry, looked up)": "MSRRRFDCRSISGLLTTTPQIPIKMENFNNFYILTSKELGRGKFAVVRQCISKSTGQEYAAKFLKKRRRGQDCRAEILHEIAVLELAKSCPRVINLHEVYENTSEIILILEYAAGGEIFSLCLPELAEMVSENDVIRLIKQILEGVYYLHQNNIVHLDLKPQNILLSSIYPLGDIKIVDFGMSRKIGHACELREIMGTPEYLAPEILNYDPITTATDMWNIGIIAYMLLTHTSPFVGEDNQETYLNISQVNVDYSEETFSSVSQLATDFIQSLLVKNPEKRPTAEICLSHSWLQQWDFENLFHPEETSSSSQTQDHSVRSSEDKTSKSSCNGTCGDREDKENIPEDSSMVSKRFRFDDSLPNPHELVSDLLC", "chain of UniProt P06239 (whole entry, looked up)": "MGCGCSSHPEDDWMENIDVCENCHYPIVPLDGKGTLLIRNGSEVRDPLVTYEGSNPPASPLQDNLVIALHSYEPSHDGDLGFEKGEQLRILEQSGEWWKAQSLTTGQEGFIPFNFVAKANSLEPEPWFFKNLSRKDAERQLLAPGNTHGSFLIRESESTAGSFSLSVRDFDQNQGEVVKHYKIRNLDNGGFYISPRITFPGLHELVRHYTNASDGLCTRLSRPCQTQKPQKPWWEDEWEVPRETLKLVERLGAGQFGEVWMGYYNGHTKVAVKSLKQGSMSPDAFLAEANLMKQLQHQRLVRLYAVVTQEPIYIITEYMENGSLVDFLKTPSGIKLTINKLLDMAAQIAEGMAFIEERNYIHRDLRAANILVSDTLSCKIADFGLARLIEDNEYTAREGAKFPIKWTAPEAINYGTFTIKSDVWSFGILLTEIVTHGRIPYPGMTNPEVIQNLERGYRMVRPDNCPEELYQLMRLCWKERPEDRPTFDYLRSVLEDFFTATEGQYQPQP", "chain of UniProt O96013 (whole entry, looked up)": "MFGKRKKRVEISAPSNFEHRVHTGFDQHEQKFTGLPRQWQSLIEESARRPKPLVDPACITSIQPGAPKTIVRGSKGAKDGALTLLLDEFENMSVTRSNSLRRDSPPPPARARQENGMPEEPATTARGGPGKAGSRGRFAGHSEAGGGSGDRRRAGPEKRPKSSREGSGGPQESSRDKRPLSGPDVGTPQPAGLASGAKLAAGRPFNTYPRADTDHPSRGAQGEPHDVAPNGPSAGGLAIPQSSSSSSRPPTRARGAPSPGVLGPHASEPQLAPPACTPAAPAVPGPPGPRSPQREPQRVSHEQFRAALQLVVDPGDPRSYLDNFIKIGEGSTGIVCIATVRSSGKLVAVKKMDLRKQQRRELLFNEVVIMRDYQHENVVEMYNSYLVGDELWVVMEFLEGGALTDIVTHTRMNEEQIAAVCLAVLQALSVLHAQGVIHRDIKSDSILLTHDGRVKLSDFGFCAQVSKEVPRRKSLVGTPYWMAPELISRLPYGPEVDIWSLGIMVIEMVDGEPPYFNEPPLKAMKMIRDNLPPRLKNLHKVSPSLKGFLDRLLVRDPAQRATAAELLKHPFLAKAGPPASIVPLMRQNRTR", "chain of UniProt P57059 (whole entry, looked up)": "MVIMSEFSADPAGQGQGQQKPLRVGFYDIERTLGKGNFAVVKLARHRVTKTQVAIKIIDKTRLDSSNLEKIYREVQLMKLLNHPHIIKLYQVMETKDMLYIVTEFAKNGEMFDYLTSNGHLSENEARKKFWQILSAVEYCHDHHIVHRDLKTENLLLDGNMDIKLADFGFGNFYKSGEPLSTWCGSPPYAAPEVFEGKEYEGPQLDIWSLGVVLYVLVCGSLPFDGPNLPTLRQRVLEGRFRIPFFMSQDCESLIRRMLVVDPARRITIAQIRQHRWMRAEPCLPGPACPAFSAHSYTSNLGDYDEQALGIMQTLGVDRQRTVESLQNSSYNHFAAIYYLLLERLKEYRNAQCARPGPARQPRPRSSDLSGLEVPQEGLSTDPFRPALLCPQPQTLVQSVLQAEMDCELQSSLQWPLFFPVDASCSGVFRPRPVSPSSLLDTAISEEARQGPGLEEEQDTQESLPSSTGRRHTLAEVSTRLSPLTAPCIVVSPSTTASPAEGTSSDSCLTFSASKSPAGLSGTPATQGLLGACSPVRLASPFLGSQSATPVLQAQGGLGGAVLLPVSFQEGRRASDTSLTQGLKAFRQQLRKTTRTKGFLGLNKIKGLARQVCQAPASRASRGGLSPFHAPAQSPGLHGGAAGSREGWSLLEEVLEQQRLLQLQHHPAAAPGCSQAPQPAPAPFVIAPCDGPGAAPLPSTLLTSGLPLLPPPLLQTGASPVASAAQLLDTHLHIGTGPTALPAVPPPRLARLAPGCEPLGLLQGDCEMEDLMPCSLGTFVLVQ"}
{"data": "Study 1", "species": "human", "medium": "microsomes or S9", "concentration": "2 µM", "time": "0.5 h"}
{"SMILES": "COc1ccc(/N=c2\\[nH]nc3nc(C)cc(C)n23)cc1", "remaining compound [%]": 51.5}
{"SMILES": "O=C(Nc1ccc2nc(N3CCC(N4CCCCC4)CC3)cc(C(=O)O)c2c1)c1ccccc1F", "remaining compound [%]": "> 100"}
{"SMILES": "O=c1c2sccc2ncn1-c1ccc(F)c(Cl)c1", "remaining compound [%]": 31.1}
{"data": "Study 2", "SMILES": "COc1ccc2[nH]c3c4[nH]c5ccc(OC)cc5c4c4c(c3c2c1)C(=O)NC4=O", "observed": "binding", "concentration": "1 µM"}
{"target": "EGFR (Homo sapiens, UniProt P00533, G719S)", "remaining binding [%]": 57}
{"target": "LCK (Homo sapiens, UniProt P06239)", "assay": "competition with immobilised ligand", "remaining binding [%]": 85}
{"target": "AKT2 (Homo sapiens, UniProt P31751)", "remaining binding [%]": 84}
{"target": "MAP2K3 (Homo sapiens, UniProt P46734)", "remaining binding [%]": 46}
{"data": "Study 3", "cell line": "mouse MPNST tumor cells", "method": "high-content immunofluorescence imaging", "item": "nuclear SOX9", "concentration": "10 µM", "time": "12 h", "notes": "mean of 2 replicates", "relative to": "DMSO control", "reading": "higher = more nuclear SOX9"}
{"Compound": "CN1c2ccc([N+](=O)[O-])cc2N=C(c2ccc(C(=O)O)cc2)c2cc3c(cc21)C(C)(C)CCC3(C)C", "nuclear SOX9 intensity": "116 % of DMSO"}
{"Compound": "Cc1ccc(Nc2nccc(N(C)c3ccc4c(C)n(C)nc4c3)n2)cc1S(N)(=O)=O", "nuclear SOX9 intensity": "131 % of DMSO"}
{"Compound": "Cc1c(O)c(=O)n(-c2ccccc2)n1C", "nuclear SOX9 intensity": "101 % of DMSO"}
{"Compound": "CC[N+](C)(C)c1cccc(O)c1", "nuclear SOX9 intensity": "94.9 % of DMSO"}
{"data": "Study 4", "SMILES": "O=C(NCc1ncc(C(F)(F)F)cc1Cl)c1ccc2c(c1)C1(CCS(=O)(=O)CC1)[C@@H](C1CC1)N2S(=O)(=O)c1ccc(F)cc1", "concentration": "1 µM"}
{"target": "KIT (Homo sapiens, UniProt P10721, A829P)", "assay": "cell-free assay, competition with immobilised ligand", "remaining binding": "67%"}
{"target": "ALK (Homo sapiens, UniProt Q9UM73)", "assay": "cell-free assay, competition with immobilised ligand", "remaining binding": "73%"}
{"target": "STK17B (Homo sapiens, UniProt O94768)", "assay": "cell-free assay, competition with immobilised ligand", "remaining binding": "87%"}
{"target": "EGFR (Homo sapiens, UniProt P00533, L858R)", "assay": "cell-free assay, competition with immobilised ligand", "remaining binding": "100%"}
{"target": "PAK2 (Homo sapiens, UniProt Q13177)", "assay": "cell-free assay, competition with immobilised ligand", "remaining binding": "84%"}
{"target": "SIK1 (Homo sapiens, UniProt P57059)", "assay": "competition binding", "remaining binding": "89%"}
{"target": "Ribosomal protein S6 kinase alpha-5, C-terminal kinase domain (RPS6KA5, Homo sapiens, UniProt O75582)", "assay": "cell-free assay, competition with immobilised ligand", "remaining binding": "97%"}
{"target": "EPHA6 (Homo sapiens, UniProt Q9UF33)", "assay": "cell-free assay, competition with immobilised ligand", "remaining binding": "100%"}
{"target": "STK35 (Homo sapiens, UniProt Q8TDR2)", "assay": "cell-free assay, competition with immobilised ligand", "remaining binding": "93%"}
{"target": "FLT3 (Homo sapiens, UniProt P36888, D835Y)", "assay": "cell-free assay, competition with immobilised ligand", "remaining binding": "100%"}
{"target": "PAK4 (Homo sapiens, UniProt O96013)", "assay": "cell-free assay, competition with immobilised ligand", "remaining binding": "89%"}
{"target": "BMPR1B (Homo sapiens, UniProt O00238)", "assay": "cell-free assay, competition with immobilised ligand", "remaining binding": "85%"}
{"target": "SYK (Homo sapiens, UniProt P43405)", "assay": "cell-free assay, competition with immobilised ligand", "remaining binding": "100%"}
{"data": "Further values, each from its own experiment"}
{"Structure (SMILES)": "O[C@@H](c1cc(C(F)(F)F)nc2c(C(F)(F)F)cccc12)[C@H]1CCCCN1", "cell line": "A-375", "setting": "100 µM, 60 h", "measurement": "viability", "value": "102%"}
{"Structure (SMILES)": "O=C1CCC(N2Cc3cc(C4CCN(Cc5ccccc5)CC4)ccc3C2=O)C(=O)N1 (stereo not shown)", "cell line": "human Treg:Teff co-culture", "setting": "concentration not given, Treg suppression", "measurement": "proliferating CD8+ Teff cells", "value": "66.2% and 87.5% and 54.1% and 86.8% and 39.5% and 47.2%"}
{"Structure (SMILES)": "COc1cccc2c1C(=O)c1c(O)c3c(c(O)c1C2=O)C[C@@](O)(C(C)=O)C[C@@H]3O[C@H]1C[C@H](N)[C@H](O)[C@H](C)O1", "cell line": "A-375", "setting": "100 µM, 60 h", "measurement": "viability", "value": "17.9%"}
{"Structure (SMILES)": "Oc1cc(O)cc(/C=C/c2ccc(O)c(O)c2)c1", "cell line": "HaCaT", "setting": "100 µM, 60 h", "measurement": "viability", "value": "129%"}
{"note": "For quick reference, copied from above (study 4):"}
{"target": "STK35 (Homo sapiens, UniProt Q8TDR2)", "assay": "cell-free assay, competition with immobilised ligand", "remaining binding": "93%"}
{"target": "FLT3 (Homo sapiens, UniProt P36888, D835Y)", "assay": "cell-free assay, competition with immobilised ligand", "remaining binding": "100%"}
{"target": "PAK4 (Homo sapiens, UniProt O96013)", "assay": "cell-free assay, competition with immobilised ligand", "remaining binding": "89%"}
